{"data": "Assay results gathered from unrelated publications"}
{"SMILES": "CCOc1c([C@H](C)n2nc(C)c3c(N)ncnc32)cc(Cl)c(F)c1[C@@H]1CNC(=O)C1", "assay": "refers to: QTcF ≤450 ms", "test system": "previously treated B-cell malignancy", "setting": "oral, 5 mg once daily, baseline QTcF ≤450 ms", "measurement": "patients", "value": "100%"}
{"SMILES": "COc1cc(Nc2ncc3c(n2)-c2ccc(Cl)cc2C(c2c(F)cccc2OC)=NC3)ccc1C(=O)O", "assay": "refers to: increased ALT, grade 3", "test system": "cancer patients, phase 1/2", "setting": "oral, dose not given, added: pembrolizumab", "measurement": "patients with adverse event", "value": "4%"}
{"SMILES": "O=C(Nc1nc2cccc(-c3ccc(CN4CCS(=O)(=O)CC4)cc3)n2n1)C1CC1", "test system": "rheumatoid arthritis patients", "setting": "oral, 100 mg twice daily, 4 weeks, TEAE regardless of relatedness", "measurement": "patients with Cystitis", "value": "0%"}
{"SMILES": "Cc1cc(NC2CCN(C(=O)OC3CCN(C(=O)/C=C/CN(C)C)C3)CC2)n2ncc(C(C)C)c2n1 (stereo not drawn)", "assay": "Phase I dose escalation CTCAE v4.0, refers to: maculo-papular rash", "test system": "patients with advanced solid tumours", "setting": "dose not given, QD dosing grade 3 or higher", "measurement": "patients with adverse event", "value": "0%"}
{"SMILES": "Cc1cc(-c2nnc(N)nc2-c2ccc(F)cc2)cc(Cl)n1", "assay": "refers to: Arthritis", "test system": "IO-naive mCRPC patients, male", "setting": "oral, dose not given, treatment-related, grade ≥3", "measurement": "patients with immune-mediated AE", "value": "0%"}
{"SMILES": "C=CC(=O)NC1CCN(c2ncc3ncnc(Nc4ccc(Oc5ccc6c(c5)ncn6C)c(C)c4)c3n2)CC1", "test system": "male patients", "setting": "oral, dose not given, on-treatment adverse events", "measurement": "patients with upper abdominal pain", "value": "0%"}
{"SMILES": "CNC(=O)c1cc(Oc2ccc(NC(=O)Nc3cc(C(C)(C)C)nn3-c3ccc4ncccc4c3)c(F)c2)ccn1", "test system": "patients", "setting": "oral, dose not given, cycles 1 and 2, High AUC subgroup", "measurement": "patients with musculoskeletal disorders", "value": "50%"}
{"SMILES": "CNC(=O)c1ccc(-c2cnc3ncc(Cc4ccc5ncccc5c4)n3n2)cc1F", "assay": "refers to: Headache, all grades", "test system": "cancer patients", "setting": "oral, 600 mg twice daily, expansion cohort, any causality", "measurement": "patients with adverse event", "value": "11%"}
{"SMILES": "FC(F)(F)c1ccc(CNc2ccc(Cc3c[nH]c4ncc(Cl)cc34)cn2)cn1", "assay": "refers to: skin hypopigmentation", "test system": "patients with TGCT", "setting": "oral, 1000 mg/day, all grades", "measurement": "patients with treatment-related adverse event", "value": "15%"}
{"note": "Some of these lines once more:"}
{"SMILES": "CCOc1c([C@H](C)n2nc(C)c3c(N)ncnc32)cc(Cl)c(F)c1[C@@H]1CNC(=O)C1", "assay": "refers to: QTcF ≤450 ms", "test system": "previously treated B-cell malignancy", "setting": "oral, 5 mg once daily, baseline QTcF ≤450 ms", "measurement": "patients", "value": "100%"}
